Published values from different studies.
“And” joins repeats or separate records; there may be more than shown.
RPS6KA5 N-terminal kinase domain: Ribosomal protein S6 kinase alpha-5, N-terminal kinase domain (RPS6KA5, Homo sapiens, UniProt O75582)
RPS6KA5: Ribosomal protein S6 kinase alpha-5 (RPS6KA5, Homo sapiens, UniProt O75582)
RPS6KA5 C-terminal kinase domain: Ribosomal protein S6 kinase alpha-5, C-terminal kinase domain (RPS6KA5, Homo sapiens, UniProt O75582)

SMILES | target | assay | test system | setting | how to read | quantity | value
Cc1ccc(-c2c(/C=C(\C#N)C(=O)NC(C)C)n(CCCO)c3ncnc(N)c23)cc1 | RPS6KA5 N-terminal kinase domain | binding, competition with immobilised ligand |  | 1 µM |  | remaining binding | 100%
COc1ccc(NC(=O)Nc2ccc3c(c2)C(=O)N(C(C)CO)CC(C)C(CN(C)Cc2ccc4c(c2)OCO4)O3)cc1 (stereo not shown) | RPS6KA5 | kinase activity, KinaseProfiler |  | 0.03 µM, species human | relative to: control | remaining activity | 103%
Cc1ccc(C)c(-c2ccc3nc(NC(=O)C4CCCCC4)nn3c2)c1 | RPS6KA5 | enzyme activity, Dundee kinase panel |  | 10 µM |  | remaining activity | 68%
C=CC(=O)Nc1cc(-c2nn(C3CCN(CCNC(=O)[C@H](C)CCC45CC6CC(CC(C6)C4)C5)CC3)c3ncnc(N)c23)ccc1Oc1ccccc1 | RPS6KA5 N-terminal kinase domain | inhibitor, KiNativ profiling | biochemical | 2 µM |  | inhibition | 30.4%
NC(=O)[C@@H](O)C[C@H]1CCc2sc3ncnc(O[C@H]4CC[C@H](N5CCOCC5)CC4)c3c21 | RPS6KA5 | enzyme activity, inhibitor |  | 10 µM |  | inhibition | 17%
CN1CCN(Cc2ccc(-c3ccc(CO[C@H]4CCC[C@@H]4NC(=O)c4cc(-c5cnn(C)c5)cnc4N)cc3)cc2)CC1 | RPS6KA5 | enzyme activity, inhibitor |  | 0.1 µM |  | inhibition | 1%
CC(C)=CC1OC(C)(C)C2C=C3C(=O)C(Cl)=CC(O)C3C3C(O)C4OC4C(=O)C132 (stereo not shown) | RPS6KA5 C-terminal kinase domain | binder, KINOMEscan competition binding |  | 10 µM | relative to: DMSO control | remaining binding | 81%
c1ccc2c(Nc3cc(C4CCC4)[nH]n3)nc(Nc3ccc4nc[nH]c4c3)nc2c1 | RPS6KA5 | enzyme activity, inhibitor |  | 0.25 µM |  | remaining activity | 21%
C=CC(=O)Nc1cccc(-c2cnc3[nH]cc(C(=O)NC(C)(C)C)c3n2)c1 | RPS6KA5 | kinase activity |  | 0.1 µM |  | inhibition | 15% and -1%
Nc1ncc2c(n1)-c1c([nH]c3ccc(C4=CCOCC4)cc13)CCC2 | RPS6KA5 N-terminal kinase domain | binding, competition with immobilised ligand |  | 1 µM |  | remaining binding | 100%
COc1cc(Nc2nc(C)cc(-c3cnn4nc(OC)ccc34)n2)cc(C(F)(F)F)c1 | RPS6KA5 N-terminal kinase domain | binding, competition with immobilised ligand |  | 1 µM |  | remaining binding | 100%
CNC1C[S+]2CC[S+]3CC[S+](C1)[Ru-4]321([N]=C=S)[n]2c3ccc(OC)cc3c3c4c(c5cc(F)c[n+]1c5c32)C(=O)NC4=O (stereo not shown) | RPS6KA5 C-terminal kinase domain | KinomeScan |  | 0.1 µM | relative to: untreated | remaining binding | 35%
Nc1ncc(-c2cc(-c3cnn(CC(F)(F)F)c3)ncc2F)nc1C(=O)NC1CNCC(F)C1 (stereo not shown) | RPS6KA5 | enzyme activity |  | 1 µM | relative to: DMSO control | remaining activity | 98.5%
C=CC(=O)N1CCCC(n2c(=O)c3ncccc3n(Cc3ccc(Oc4ccccc4)cc3)c2=O)C1 (stereo not shown) | RPS6KA5 N-terminal kinase domain | binding, competition with immobilised ligand |  | 1 µM |  | remaining binding | 90%
Cc1cnc2nc1Nc1cccc(c1)COC/C=C/COCc1cc(ccc1OCCN1CCOCC1)N2 | RPS6KA5 N-terminal kinase domain | binding, competition with immobilised ligand |  | 0.1 µM |  | remaining binding | 100%
O=C(Cc1ccc(OCc2ccccc2)cc1)NC1(C(=O)O)CCN(C(=O)c2ccc(-c3cccc(Cl)c3)cc2)CC1 | RPS6KA5 | enzyme activity, inhibitor |  | 10 µM |  | activity vs control | 137%
CNC(=O)C1CCN(c2cc(C)c(F)cc2NC(=O)c2ccc(-c3cc(O)ccc3C)c(C)c2)CC1 | RPS6KA5 N-terminal kinase domain | binding, competition with immobilised ligand |  | 1 µM |  | remaining binding | 100%
COc1cc(Nc2nccc(-c3cnn4nc(OC)ccc34)n2)cc(C(F)(F)F)c1 | RPS6KA5 N-terminal kinase domain | binding, competition with immobilised ligand |  | 1 µM |  | remaining binding | 100%
Cc1cccc(-c2ccc3nc(NC(=O)C4CCOCC4)nn3c2)c1 | RPS6KA5 | enzyme activity, Dundee kinase panel |  | 10 µM |  | remaining activity | 56%
CS(=O)(=O)Nc1cccc(-c2csc3cnc(Nc4ccc(N5CCN(CCCCCOc6cccc7c6C(=O)N(C6CCC(=O)NC6=O)C7=O)CC5)cc4)nc23)c1 (stereo not shown) | RPS6KA5 N-terminal kinase domain | probe labelling, inhibitor, KiNativ chemoproteomics | MOLT-4 | 1 µM |  | inhibition | -11.1%
CCn1cc(C(=O)O)c(=O)c2c(N)c(F)c(NC3CCCCC3)cc21 | RPS6KA5 | kinase activity |  | 0.1 µM, with: ATP at Km |  | inhibition | 12.6%
COCC12C(=O)NC3C4(C(OC)CC1O)C1CC5(O)C(OC)C(O)C(OC(C)=O)(C1C5OC(=O)c1ccccc1)C3(O)C(OC)C24 (stereo not shown) | RPS6KA5 | kinase activity, inhibitor, ProQinase kinase profiling |  | 25 µM | relative to: control | remaining activity | 86% and 100%
Cc1cccc(O[C@H]2CCC[C@@H](C(C)CNCc3ccncc3)C2)c1 (relative stereo) | RPS6KA5 | enzyme activity, inhibitor |  | 10 µM |  | inhibition | -14%
COc1c(Cl)cccc1Nc1c(-c2ccncc2C#C[C@@]2(C)CCCN2C(=O)/C=C/CN(C)C)[nH]c2c1C(=O)NCC2 | RPS6KA5 C-terminal kinase domain | binding, competition with immobilised ligand |  | 3 µM |  | remaining binding | 95%
CCN1CCN(Cc2ccc(C(=O)Nc3ccc(C)c(NCc4cnc5[nH]ccc5c4OC)c3)cc2C(F)(F)F)CC1 | RPS6KA5 C-terminal kinase domain | binding, competition with immobilised ligand |  | 1 µM |  | remaining binding | 89%

Repeated from above:
SMILES | target | assay | test system | setting | how to read | quantity | value
O=C(Cc1ccc(OCc2ccccc2)cc1)NC1(C(=O)O)CCN(C(=O)c2ccc(-c3cccc(Cl)c3)cc2)CC1 | RPS6KA5 | enzyme activity, inhibitor |  | 10 µM |  | activity vs control | 137%
COc1ccc(NC(=O)Nc2ccc3c(c2)C(=O)N(C(C)CO)CC(C)C(CN(C)Cc2ccc4c(c2)OCO4)O3)cc1 (stereo not shown) | RPS6KA5 | kinase activity, KinaseProfiler |  | 0.03 µM, species human | relative to: control | remaining activity | 103%
C=CC(=O)Nc1cccc(-c2cnc3[nH]cc(C(=O)NC(C)(C)C)c3n2)c1 | RPS6KA5 | kinase activity |  | 0.1 µM |  | inhibition | 15% and -1%
